Results pooled from the literature.
Numbers after ± are the reported error.
Organism: Acinetobacter baumannii

The MIC of `CCCCCCCC(=O)N[C@@H](CCN)C(=O)N[C@@H](CCN)C(=O)N[C@@H](CCN)C(=O)N[C@H](Cc1ccccc1)C(=O)N[C@@H](CC(C)C)C(=O)N[C@@H](CCN)C(=O)N[C@@H](C(=O)N[C@@H](CC(C)C)C(=O)N[C@@H](CCN)C(N)=O)C(C)C` is reported as 0.0313 to 0.0625 µg/mL (checkerboard, measured: rifampicin; ATCC 19606; sensitization to antibiotics, together with: compound at 4 µg/mL).
For `O=C(O)c1cn(C2CC2)c2cc(N3CCNCC3)c(F)cc2c1=O`, the MIC was 0.47 µg/mL (microbial growth, broth dilution).
`gentamicin` gave an MIC of 0.5 µg/mL (clinical isolate; 18 h, pH 7).
`CC1(C)S[C@@H]2[C@H](NC(=O)[C@H](N)c3ccccc3)C(=O)N2[C@H]1C(=O)O` has an MIC of over 367 µM.
With `CC1(C)SC2C(NC(=O)C(NC(=O)C3=C(O)C4CCCN4C3=O)c3ccccc3)C(=O)N2C1C(=O)O` (stereo not drawn) the MIC was at least 200 µg/mL (microbial growth, broth dilution; ATCC19606).
`CCCCCCCC(=O)N[C@@H](CCCN)C(=O)N[C@H](C(=O)N[C@@H](CCCN)C(=O)N[C@H](Cc1ccccc1)C(=O)N[C@@H](CC(C)C)C(=O)N[C@@H](CCCN)C(=O)N[C@@H](C(=O)N[C@@H](CC(C)C)C(=O)N[C@@H](CO)C(N)=O)C(C)C)[C@@H](C)CC` gave an MIC of 0.0156 to 0.0313 µg/mL (checkerboard, measured: rifampicin; ATCC 19606; sensitization to antibiotics, together with: compound at 4 µg/mL).
`N#CC(=Cc1cn(-c2ccccc2)nc1-c1ccccc1)C1=NC(=O)CS1` has an MIC of 0.44 µg/mL (microbial growth, broth dilution).
With `CC1(C)SC2C(NC(=O)C(NC(=O)C3=C(O)C(c4ccccc4)NC3=O)c3ccccc3)C(=O)N2C1C(=O)O` (stereo not drawn) the MIC was 50 µg/mL (microbial growth, broth dilution; ATCC19606).
With `CCCCCCC(=O)N[C@@H](CCN)C(=O)N[C@H](C(=O)N[C@@H](CCN)C(=O)N[C@H](Cc1ccccc1)C(=O)N[C@@H](CC(C)C)C(=O)N[C@@H](CCN)C(=O)N[C@@H](C(=O)N[C@@H](CC(C)C)C(=O)N[C@@H](CO)C(N)=O)C(C)C)C(C)C` the MIC was 0.0313 to 0.0625 µg/mL (checkerboard, measured: rifampicin; ATCC 19606; sensitization to antibiotics, together with: compound at 4 µg/mL).
With `CC1(C)S[C@@H]2[C@H](NC(=O)[C@H](N)c3ccccc3)C(=O)N2[C@H]1C(=O)O` the MIC was 100 µg/mL (microbial growth, broth dilution; ATCC19606).
`CCCCCC(=O)N[C@@H](CCN)C(=O)N[C@H](C(=O)N[C@@H](CCN)C(=O)N[C@H](Cc1ccccc1)C(=O)N[C@@H](CC(C)C)C(=O)N[C@@H](CCN)C(=O)N[C@@H](C(=O)N[C@@H](CC(C)C)C(=O)N[C@@H](CO)C(N)=O)C(C)C)[C@@H](C)CC` gave an MIC of 0.00195 to 0.0039 µg/mL (checkerboard, measured: rifampicin; ATCC 19606; sensitization to antibiotics, together with: compound at 4 µg/mL).
`CC(C)(C)OCC1NC(=O)C(C(=O)NC(C(=O)NC2C(=O)N3C2SC(C)(C)C3C(=O)O)c2ccccc2)=C1O` (stereo not drawn) gave an MIC of 100 µg/mL (microbial growth, broth dilution; ATCC19606).
For `CCCCCCCCCC(=O)N[C@@H](CCN)C(=O)N[C@H](C(=O)N[C@H](C(=O)N[C@H](CC(C)C)C(=O)N[C@@H](CC(C)C)C(=O)N[C@@H](CCN)C(=O)N[C@@H](C(=O)N[C@@H](CC(C)C)C(=O)N[C@@H](CO)C(N)=O)C(C)C)[C@@H](C)O)[C@@H](C)CC`, the MIC was over 0.125 µg/mL (checkerboard, measured: rifampicin; ATCC 19606; sensitization to antibiotics, together with: compound at 4 µg/mL).
`CC(C)(C)Oc1ccc(CC2NC(=O)C(C(=O)NC(C(=O)NC3C(=O)N4C3SC(C)(C)C4C(=O)O)c3ccccc3)=C2O)cc1` (stereo not drawn) has an MIC of at least 200 µg/mL (microbial growth, broth dilution; ATCC19606).
The MIC of `CCOC(=O)c1c(N)csc1-c1cn(-c2ccccc2)nc1-c1ccc(C)cc1` is reported as 0.24 ± 0.1 µg/mL (broth microdilution; clinical urinary isolate; compound gamma-irradiated 1 kGy).

Some of these lines once more:
The MIC of `CCCCCCCC(=O)N[C@@H](CCN)C(=O)N[C@@H](CCN)C(=O)N[C@@H](CCN)C(=O)N[C@H](Cc1ccccc1)C(=O)N[C@@H](CC(C)C)C(=O)N[C@@H](CCN)C(=O)N[C@@H](C(=O)N[C@@H](CC(C)C)C(=O)N[C@@H](CCN)C(N)=O)C(C)C` is reported as 0.0313 to 0.0625 µg/mL (checkerboard, measured: rifampicin; ATCC 19606; sensitization to antibiotics, together with: compound at 4 µg/mL).
For `CCCCCCCCCC(=O)N[C@@H](CCN)C(=O)N[C@H](C(=O)N[C@H](C(=O)N[C@H](CC(C)C)C(=O)N[C@@H](CC(C)C)C(=O)N[C@@H](CCN)C(=O)N[C@@H](C(=O)N[C@@H](CC(C)C)C(=O)N[C@@H](CO)C(N)=O)C(C)C)[C@@H](C)O)[C@@H](C)CC`, the MIC was over 0.125 µg/mL (checkerboard, measured: rifampicin; ATCC 19606; sensitization to antibiotics, together with: compound at 4 µg/mL).
